Results from different studies.
Each numbered part is a random draw from the data of one study; scales do not carry over between parts.

Study 1
Target: RNA binding protein fox-1 homolog 2, RRM domain, GST-SBP tag (RBFOX2, Homo sapiens, UniProt O43251-10, residues 100-194)
Technique: RNA Bind-n-Seq
Molecule type: RNA
Sample: in vitro
Concentration: 365 nM
Notes: natural RNA segment, single round, ends assumed
Relative to: no-protein control
Reading: higher = stronger binding
Sequence	RBNS enrichment (R)
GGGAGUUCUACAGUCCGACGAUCUGCAUCAUGCAUGACUCACUCAGGGGCCCUUGGGGCCCUCUUCUCUAUGAUAUGAAUACUGUGUGUGUGAGUUGAAGCAUUACCUGAUAUUAAAUGAAGGAUUUGGAGAAUGGAAUUCUCGGGUGCCAA	2.96
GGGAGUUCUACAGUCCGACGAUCAAAUUUGUUUCCUGGUGAGCACAGAAUCAGAACAAAGAACAAUAUCCCAAAGAGGCCCUGUGUCUACCAGGAGCUUCUUUUUCCAAAUGUAAUGGAUUAUGUGGAAUUGUUGGAAUUCUCGGGUGCCAA	0.792
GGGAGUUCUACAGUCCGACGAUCCGCCCUGUGGUGCCCACCUCCAACCCUCCAGUCUCCUGGUGUUCAUCUGGGCAUGUCUGCACAAGCAAUGCAACGCUGGGCCACUGCUGCCCGUCUGCCUCCCCGGCACGUGGAAUUCUCGGGUGCCAA	1.18
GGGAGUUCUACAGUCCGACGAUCCUCUCUUUAAAGUCUAGUCCCGGCAUUCCUCCAUGUGAUUGACAGCCAGACCUCUGGGUUCCCAGGAAAUUAUCUUCCAGUUGAAUGACCAUUUACUUGAUACAAAUUGUUGGAAUUCUCGGGUGCCAA	0.429
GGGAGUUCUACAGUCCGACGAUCUUUAUAGUUCUCCAUUUGUCUCAUGUUCCGAAUGUGAAGUGUCCUAAUGUGUAUUAAAGUCAGAAAAUAAUAUAUUUAAGGUAUACUAAGUAUGAAUCUGCUAUGAUAAAUGGAAUUCUCGGGUGCCAA	0.827
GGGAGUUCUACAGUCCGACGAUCUGUUUUUUGUGCAUAUAUUUCUGCUACCACAGAGAUUGUACUAUACAAAUAAAAAAAUAAAAACCCACCUCAAGCUGUCACCCUUGGAUGUGUCCUGAAUCUCAGGCAGGUGGAAUUCUCGGGUGCCAA	0.377
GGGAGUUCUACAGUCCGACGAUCGGGUAGAGCAAUCUGGGCACUUUGGCCAAUUUUAGUCUUGCUGUUUCUUGAUGCUCACCUCUAUAUUAGUUUAUUGUUAGGAUCAAUGAUAAAUUUAAAUGACCUCAGAUUGGAAUUCUCGGGUGCCAA	0.629
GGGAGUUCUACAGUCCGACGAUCGUGUUUAAUGUUGCAGCAAACUCACCAAGAAGGAGACAAAUGGCUGUUUCGAAUGGAAGCUUUCUCAGCAGACAAUGUGUGCACAGUAAACUUCAGCAGAGUCCACUUGUUGGAAUUCUCGGGUGCCAA	0.459

Study 2
Target: Interferon regulatory factor 3, full length, phosphomimetic (IRF3, Homo sapiens, UniProt Q14653, residues 1-427, S386D/S396D/S398D/S402D/T404D/S405D)
Technique: protein-binding microarray
Molecule type: double-stranded DNA, one strand shown
Sample: in vitro
Concentration: 2540 nM top
Notes: 60-bp whole probe
Together with: salmon DNA 0.4 mg/ml
Relative to: random background probes
Reading: higher = stronger binding
Constant ends, left off below: GCCTAGCAC … GTCTTGATTCGCTTGACGCTGCTG
Residues (chain): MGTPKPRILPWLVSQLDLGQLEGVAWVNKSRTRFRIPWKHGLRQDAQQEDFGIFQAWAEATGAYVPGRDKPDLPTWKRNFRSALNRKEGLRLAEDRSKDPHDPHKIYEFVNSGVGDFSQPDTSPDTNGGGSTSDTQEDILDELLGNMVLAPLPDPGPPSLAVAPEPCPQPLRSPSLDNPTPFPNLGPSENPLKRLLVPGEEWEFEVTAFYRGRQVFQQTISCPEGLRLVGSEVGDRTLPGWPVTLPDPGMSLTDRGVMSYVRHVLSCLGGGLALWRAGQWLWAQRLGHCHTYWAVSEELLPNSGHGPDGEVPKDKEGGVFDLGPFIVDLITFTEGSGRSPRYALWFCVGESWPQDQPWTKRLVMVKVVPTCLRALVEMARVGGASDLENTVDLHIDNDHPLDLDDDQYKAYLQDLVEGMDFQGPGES
Sequence	fitted relative affinity
GACGGTATCGGGACTGTGGACGTGCTA	1.53 z-score
TCATTTTTTTTTTCATCACTGTGCTAG	1.56 z-score
TTACGTTTCGGTTCCGGTTAGTGCTAG	9.22 z-score
GGCAAAAACATGAACAGACAGTGCTAG	-0.53 z-score
CCCGCCCCGCCCCGCCCGCAGTGCTAG	-0.838 z-score
GACTGTATCCTACTGCTGACGTGCTAG	2.44 z-score
GACTGACTGCTTTTCCTGACGTGCTAG	-0.19 z-score
GATGGTATCCTTCTCCTGACGTGCTAG	7.09 z-score
TTACGACTGGGGTTTCGGTTAGTGCTA	2.65 z-score

Study 3
Target: Histone acetyltransferase KAT6A, both winged helices, GST fusion (KAT6A, Homo sapiens, UniProt Q92794, residues 1-181)
Technique: protein binding microarray
Molecule type: double-stranded DNA, one strand shown
Sample: in vitro
Concentration: not given
Notes: 8-mer, flanks averaged, mean of 2 arrays, mostly near background
Relative to: not given
Reading: higher = stronger binding
Construct (chain): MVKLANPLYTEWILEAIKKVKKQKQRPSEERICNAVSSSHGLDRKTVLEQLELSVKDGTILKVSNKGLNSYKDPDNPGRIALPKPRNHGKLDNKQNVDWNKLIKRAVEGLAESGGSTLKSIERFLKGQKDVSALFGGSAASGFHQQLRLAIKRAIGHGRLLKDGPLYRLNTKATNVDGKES
Sequence	E-score
CTATCGTC	0.00985
AGATGCGC	0.22
AGTGGCAG	-0.135
ATCACTCC	-0.107
GTGAGGCA	-0.0972
CAGAGGCA	-0.11
GAAGCAGA	-0.298
ATACCCGG	0.176

Mixed results
Substance	target	test	system	conditions	how to read	measurement	result
PhoQ, residues 284 288 289 292 302 303 NLCILV	PhoP, residues 12 14 15 18 19 LYHSL (Escherichia coli, UniProt P23836)	Sort-seq, refers to: YFP reporter	E. coli	PhoQ-PhoP variant library, together with: 10 µM Mg2+	relative to: high Mg2+ state, higher = stronger signaling	fold induction	8.15
